# Experimental data pooled from the literature.
# Each numbered part is a random draw from the data of one study; scales do not carry over between parts. ± gives the spread as reported.
# Sequence of UniProt Q9ESK4 (whole entry, looked up): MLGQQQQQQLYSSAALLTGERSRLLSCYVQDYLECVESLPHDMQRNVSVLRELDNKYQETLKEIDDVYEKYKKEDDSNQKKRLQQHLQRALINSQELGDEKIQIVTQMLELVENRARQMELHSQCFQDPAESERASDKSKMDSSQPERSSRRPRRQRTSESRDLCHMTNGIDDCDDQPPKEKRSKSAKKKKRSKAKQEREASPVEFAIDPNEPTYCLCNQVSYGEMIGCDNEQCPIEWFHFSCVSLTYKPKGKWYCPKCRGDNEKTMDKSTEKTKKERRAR

# Series 1 — observed: GTPγS binding; mode: positive allosteric modulator; added: EC20 glutamate; reference: control glutamate response
# Target: Metabotropic glutamate receptor 2 (GRM2, Homo sapiens, UniProt Q14416)
# Sequence of UniProt Q14416 (whole entry, looked up): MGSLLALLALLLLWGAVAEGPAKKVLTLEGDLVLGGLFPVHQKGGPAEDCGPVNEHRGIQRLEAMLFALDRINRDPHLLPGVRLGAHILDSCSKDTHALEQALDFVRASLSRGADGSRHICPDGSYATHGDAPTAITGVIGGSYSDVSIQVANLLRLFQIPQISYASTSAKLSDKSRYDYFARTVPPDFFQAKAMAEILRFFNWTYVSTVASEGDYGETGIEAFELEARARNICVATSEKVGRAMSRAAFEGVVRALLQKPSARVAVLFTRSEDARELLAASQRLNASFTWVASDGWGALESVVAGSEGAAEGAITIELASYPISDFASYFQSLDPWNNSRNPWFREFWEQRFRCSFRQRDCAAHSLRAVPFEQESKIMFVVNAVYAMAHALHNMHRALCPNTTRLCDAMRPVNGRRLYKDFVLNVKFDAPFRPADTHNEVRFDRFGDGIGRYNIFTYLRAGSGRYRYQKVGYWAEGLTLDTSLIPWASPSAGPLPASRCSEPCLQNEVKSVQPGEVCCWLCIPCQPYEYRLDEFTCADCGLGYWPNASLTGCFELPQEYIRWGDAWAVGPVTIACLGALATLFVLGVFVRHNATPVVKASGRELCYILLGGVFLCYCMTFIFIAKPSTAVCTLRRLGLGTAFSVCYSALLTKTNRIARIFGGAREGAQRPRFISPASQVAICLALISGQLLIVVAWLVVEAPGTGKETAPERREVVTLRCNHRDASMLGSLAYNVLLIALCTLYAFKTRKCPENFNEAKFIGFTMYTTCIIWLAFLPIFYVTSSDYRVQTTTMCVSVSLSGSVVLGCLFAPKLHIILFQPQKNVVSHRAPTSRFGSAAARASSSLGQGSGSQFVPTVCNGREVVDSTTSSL
SMILES,Emax [%]
CCCCn1ccn2c(-c3ccc4c(ccn4-c4cccnc4)c3)c(C)nc2c1=O,224 ± 41
CCCCn1ccn2c(-c3ccc(NCc4ccc(OC)nc4)cc3)c(C)nc2c1=O,244 ± 23
CCCCn1ccn2c(-c3ccc(N4CCNCC4)c(Cl)c3)c(C)nc2c1=O,237 ± 81
CCCCn1ccn2c(-c3ccc(OCC4CC4)c(Cl)c3)nc(C)c2c1=O,151 ± 8
CCCCn1ccn2c(-c3ccc(Oc4ccccc4)cc3)c(C)nc2c1=O,256 ± 7

# Series 2 — observed: dynamic mass redistribution; mode: antagonist; cells: HT-29
# SMILES: COC(=O)c1cnn(-c2ccc(F)cc2F)c1C=NNC(=S)NC(C)(C)C
# Target: G-protein coupled receptor 35 (GPR35, Homo sapiens, UniProt Q9HC97)
# Sequence of UniProt Q9HC97 (whole entry, looked up): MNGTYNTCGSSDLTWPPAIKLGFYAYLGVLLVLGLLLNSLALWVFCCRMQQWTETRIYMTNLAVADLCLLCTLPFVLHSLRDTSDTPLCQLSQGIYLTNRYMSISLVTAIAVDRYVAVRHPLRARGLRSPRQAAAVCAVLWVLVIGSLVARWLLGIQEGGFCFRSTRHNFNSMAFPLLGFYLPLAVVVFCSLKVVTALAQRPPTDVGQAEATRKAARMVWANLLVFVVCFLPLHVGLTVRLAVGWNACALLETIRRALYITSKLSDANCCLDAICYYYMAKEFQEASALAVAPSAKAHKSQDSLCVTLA
setting,IC50 [µM]
added: 3-nitro-L-tyrosine 0.5 mM,6.74 ± 0.39
added: rT3 16 µM,2.84 ± 0.23
added: 0.5 mM kynurenic acid,4.41 ± 0.47
added: gentisate 0.5 mM,6.65 ± 0.49
added: DOPAC 1 mM,4.6 ± 0.31
added: DHICA 64 µM,9.17 ± 0.7
added: 2 µM cromolyn disodium,13.5 ± 1.6
added: rosmarinate 32 µM,2.22 ± 0.19

# Other studies, line by line
SMILES,tested on,test,test system,setting,how to read,endpoint,value
CCCC(CCC)C(=O)O,,item: latency to stage 3,"male mice, pilocarpine-induced seizures","oral, 20 mg/kg, dosed 30 min before pilocarpine, added: pilocarpine 300 mg/kg i.p.",reference: pilocarpine vehicle group,seizure latency increase,67.3%
CCCCc1oc2ccccc2c1C(=O)c1cc(I)c(OCC[N+](C)(C)C)c(I)c1,"Inhibitor of growth protein 2, PHD finger (Ing2, Mus musculus, UniProt Q9ESK4)",fluorescence polarization,,,,IC50,105 ± 33 µM
O=C(O)CCCCCCC(=O)OCn1cc(F)c(=O)[nH]c1=O,Caco-2 butyrate-induced,,,added: MCT1 inhibitor 2.5 mM,reference: without inhibitor,fold decrease in uptake,48.2 fold

# A few entries again (series 2):
setting,IC50 [µM]
added: 0.5 mM kynurenic acid,4.41 ± 0.47
